{"data": "Published values of several laboratories", "note": "A part holds a random share of what one study measured.", "sequence of UniProt Q9Y2U5 (whole entry, looked up)": "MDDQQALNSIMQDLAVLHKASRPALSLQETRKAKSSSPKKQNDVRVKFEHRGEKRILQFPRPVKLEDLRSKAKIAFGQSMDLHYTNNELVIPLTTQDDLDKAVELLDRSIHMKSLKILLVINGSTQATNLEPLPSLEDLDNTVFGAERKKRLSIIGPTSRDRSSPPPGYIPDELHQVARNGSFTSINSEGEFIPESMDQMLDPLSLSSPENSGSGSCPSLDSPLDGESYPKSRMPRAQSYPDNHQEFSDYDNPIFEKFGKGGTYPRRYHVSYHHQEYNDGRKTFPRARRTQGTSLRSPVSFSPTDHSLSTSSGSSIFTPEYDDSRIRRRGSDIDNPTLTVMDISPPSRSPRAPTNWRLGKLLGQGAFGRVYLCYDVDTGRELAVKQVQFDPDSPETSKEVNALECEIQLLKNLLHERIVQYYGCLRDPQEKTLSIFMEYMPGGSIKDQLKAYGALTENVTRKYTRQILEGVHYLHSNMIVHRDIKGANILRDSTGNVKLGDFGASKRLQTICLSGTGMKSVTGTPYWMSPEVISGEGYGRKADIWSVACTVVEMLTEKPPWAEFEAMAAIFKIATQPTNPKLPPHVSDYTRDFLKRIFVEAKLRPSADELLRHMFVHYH", "sequence of UniProt Q8TD08 (whole entry, looked up)": "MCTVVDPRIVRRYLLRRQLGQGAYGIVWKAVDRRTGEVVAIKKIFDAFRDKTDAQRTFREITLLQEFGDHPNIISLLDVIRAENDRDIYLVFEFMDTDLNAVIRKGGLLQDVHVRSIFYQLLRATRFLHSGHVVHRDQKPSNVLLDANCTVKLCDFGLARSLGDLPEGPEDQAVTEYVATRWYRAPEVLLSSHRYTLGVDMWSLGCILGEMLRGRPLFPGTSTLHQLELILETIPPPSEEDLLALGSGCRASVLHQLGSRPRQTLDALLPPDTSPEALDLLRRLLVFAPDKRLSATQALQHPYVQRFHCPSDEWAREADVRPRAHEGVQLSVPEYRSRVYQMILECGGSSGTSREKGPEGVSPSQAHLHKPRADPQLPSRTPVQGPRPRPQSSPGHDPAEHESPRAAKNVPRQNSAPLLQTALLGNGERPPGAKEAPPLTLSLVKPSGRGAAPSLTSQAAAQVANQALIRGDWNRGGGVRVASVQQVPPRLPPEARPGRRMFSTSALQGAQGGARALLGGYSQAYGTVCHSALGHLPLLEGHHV", "sequence of UniProt Q9UKI8 (whole entry, looked up)": "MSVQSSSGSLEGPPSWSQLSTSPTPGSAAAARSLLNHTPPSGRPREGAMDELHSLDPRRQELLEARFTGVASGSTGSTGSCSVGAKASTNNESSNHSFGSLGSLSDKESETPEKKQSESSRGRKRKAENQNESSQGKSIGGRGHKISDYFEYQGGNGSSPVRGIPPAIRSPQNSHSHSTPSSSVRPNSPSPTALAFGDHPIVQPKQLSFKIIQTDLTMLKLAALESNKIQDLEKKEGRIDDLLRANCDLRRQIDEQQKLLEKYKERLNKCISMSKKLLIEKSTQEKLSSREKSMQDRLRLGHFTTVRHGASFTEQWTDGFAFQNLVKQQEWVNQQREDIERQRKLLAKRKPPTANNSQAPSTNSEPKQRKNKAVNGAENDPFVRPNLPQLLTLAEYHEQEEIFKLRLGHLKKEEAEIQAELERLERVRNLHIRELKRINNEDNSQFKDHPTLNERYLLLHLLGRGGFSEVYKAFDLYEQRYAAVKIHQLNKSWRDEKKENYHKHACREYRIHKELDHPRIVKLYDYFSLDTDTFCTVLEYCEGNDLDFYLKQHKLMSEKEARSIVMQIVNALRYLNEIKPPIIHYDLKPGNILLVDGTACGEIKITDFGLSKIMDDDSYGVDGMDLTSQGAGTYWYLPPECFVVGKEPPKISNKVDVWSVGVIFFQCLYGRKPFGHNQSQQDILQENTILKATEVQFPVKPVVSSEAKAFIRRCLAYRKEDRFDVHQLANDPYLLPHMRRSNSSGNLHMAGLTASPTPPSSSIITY", "sequence of UniProt P53778 (whole entry, looked up)": "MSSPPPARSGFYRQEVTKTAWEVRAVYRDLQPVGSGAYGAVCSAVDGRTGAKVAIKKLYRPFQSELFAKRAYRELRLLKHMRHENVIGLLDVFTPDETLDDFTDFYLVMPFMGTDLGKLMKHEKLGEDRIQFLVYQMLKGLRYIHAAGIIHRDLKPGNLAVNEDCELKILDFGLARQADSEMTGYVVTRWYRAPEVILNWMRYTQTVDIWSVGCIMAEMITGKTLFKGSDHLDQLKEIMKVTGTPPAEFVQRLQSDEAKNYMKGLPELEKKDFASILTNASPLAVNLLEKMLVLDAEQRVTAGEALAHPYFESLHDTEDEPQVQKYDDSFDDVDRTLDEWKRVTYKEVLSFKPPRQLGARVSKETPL", "sequence of UniProt Q8NEV4 (whole entry, looked up)": "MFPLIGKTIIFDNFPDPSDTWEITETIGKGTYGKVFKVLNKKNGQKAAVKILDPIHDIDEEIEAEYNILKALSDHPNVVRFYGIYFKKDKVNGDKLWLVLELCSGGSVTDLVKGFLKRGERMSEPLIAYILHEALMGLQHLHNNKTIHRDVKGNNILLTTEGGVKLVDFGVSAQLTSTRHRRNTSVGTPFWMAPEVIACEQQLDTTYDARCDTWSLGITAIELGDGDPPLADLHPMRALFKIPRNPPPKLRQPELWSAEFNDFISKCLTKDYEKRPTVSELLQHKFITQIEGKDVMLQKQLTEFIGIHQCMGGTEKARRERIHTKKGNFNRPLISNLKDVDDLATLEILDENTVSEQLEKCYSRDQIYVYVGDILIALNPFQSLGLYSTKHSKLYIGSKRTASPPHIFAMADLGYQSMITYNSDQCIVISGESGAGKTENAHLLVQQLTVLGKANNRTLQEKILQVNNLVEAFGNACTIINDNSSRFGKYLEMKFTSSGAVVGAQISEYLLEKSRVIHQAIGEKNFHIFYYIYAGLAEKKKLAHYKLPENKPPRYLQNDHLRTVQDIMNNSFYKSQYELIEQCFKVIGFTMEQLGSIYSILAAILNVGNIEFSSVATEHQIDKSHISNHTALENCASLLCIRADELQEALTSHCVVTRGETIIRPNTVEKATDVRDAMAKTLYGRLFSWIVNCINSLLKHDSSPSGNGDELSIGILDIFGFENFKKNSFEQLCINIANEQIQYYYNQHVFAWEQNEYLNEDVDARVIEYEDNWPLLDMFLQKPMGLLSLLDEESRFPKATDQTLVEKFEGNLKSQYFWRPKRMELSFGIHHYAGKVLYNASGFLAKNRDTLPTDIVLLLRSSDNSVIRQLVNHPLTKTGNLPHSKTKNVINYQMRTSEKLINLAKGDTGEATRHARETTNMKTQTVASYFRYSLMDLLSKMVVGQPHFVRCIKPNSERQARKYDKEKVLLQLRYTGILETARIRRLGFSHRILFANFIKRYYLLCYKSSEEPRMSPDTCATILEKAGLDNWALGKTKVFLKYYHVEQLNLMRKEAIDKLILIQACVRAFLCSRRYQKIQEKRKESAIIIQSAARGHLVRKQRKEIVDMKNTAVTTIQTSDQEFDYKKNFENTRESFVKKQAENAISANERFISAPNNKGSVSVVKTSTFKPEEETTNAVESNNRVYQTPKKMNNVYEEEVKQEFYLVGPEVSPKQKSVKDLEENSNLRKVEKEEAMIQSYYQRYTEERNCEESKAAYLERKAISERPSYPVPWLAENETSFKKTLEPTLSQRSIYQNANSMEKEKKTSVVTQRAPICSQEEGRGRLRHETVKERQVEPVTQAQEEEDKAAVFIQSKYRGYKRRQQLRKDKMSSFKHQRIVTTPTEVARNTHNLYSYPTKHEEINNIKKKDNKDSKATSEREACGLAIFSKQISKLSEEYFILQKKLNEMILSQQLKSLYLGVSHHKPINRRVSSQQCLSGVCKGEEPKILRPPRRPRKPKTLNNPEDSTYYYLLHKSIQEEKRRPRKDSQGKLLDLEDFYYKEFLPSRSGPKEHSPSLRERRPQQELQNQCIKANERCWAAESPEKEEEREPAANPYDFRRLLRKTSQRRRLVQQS", "sequence of UniProt P23443 (whole entry, looked up)": "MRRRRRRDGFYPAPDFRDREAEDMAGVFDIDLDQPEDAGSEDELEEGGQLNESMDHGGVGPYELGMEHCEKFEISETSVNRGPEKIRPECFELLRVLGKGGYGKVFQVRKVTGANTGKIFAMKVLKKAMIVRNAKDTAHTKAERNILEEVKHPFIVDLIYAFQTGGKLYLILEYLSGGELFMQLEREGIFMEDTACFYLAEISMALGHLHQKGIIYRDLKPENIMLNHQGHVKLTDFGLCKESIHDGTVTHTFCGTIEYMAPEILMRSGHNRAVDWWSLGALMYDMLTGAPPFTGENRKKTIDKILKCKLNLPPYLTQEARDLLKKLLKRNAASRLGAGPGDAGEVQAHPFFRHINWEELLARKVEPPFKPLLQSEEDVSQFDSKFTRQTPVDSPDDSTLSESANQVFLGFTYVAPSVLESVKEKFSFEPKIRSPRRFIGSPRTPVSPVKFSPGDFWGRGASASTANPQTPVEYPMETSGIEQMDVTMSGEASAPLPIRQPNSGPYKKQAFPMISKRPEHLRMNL"}
{"data": "Set 1", "target": "Calcium/calmodulin-dependent protein kinase type II subunit alpha (CAMK2A, Homo sapiens, UniProt Q9UQM7)", "observed": "enzyme activity", "mode": "inhibitor", "tested at": "10 µM", "sequence of UniProt Q9UQM7 (whole entry, looked up)": "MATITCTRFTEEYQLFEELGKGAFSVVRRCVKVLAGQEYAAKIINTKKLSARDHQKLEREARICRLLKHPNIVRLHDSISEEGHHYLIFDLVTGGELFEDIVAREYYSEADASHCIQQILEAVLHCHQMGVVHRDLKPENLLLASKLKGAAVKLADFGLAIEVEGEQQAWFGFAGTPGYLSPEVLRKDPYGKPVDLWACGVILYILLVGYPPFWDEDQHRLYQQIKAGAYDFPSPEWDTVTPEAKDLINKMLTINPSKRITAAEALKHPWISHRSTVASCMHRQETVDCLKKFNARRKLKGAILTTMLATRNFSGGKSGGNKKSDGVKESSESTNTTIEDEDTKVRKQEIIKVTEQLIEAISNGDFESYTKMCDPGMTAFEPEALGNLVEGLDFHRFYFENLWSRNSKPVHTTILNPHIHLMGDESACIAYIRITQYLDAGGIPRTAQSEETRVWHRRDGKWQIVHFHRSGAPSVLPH"}
{"Compound": "CCCOC(=O)c1ccc(O)cc1", "inhibition [%]": -47}
{"Compound": "C=CCN1CCCC1CNC(=O)c1cc2nn[nH]c2cc1OC (centres unmarked)", "inhibition [%]": -10}
{"Compound": "C=C(C)[C@H](CC=C(C)C)Cc1c(O)cc(O)c2c1O[C@H](c1ccc(O)cc1OC)CC2=O", "inhibition [%]": -23}
{"Compound": "NC[C@@H]1O[C@H](O[C@H]2[C@@H](O)[C@H](O[C@@H]3[C@@H](O)[C@H](N)C[C@H](N)[C@H]3O[C@H]3O[C@H](CO)[C@@H](O)[C@H](O)[C@H]3N)O[C@@H]2CO)[C@H](N)[C@@H](O)[C@@H]1O", "inhibition [%]": 8}
{"Compound": "C=C1/C(=C\\C=C2/CCC[C@]3(C)[C@@H]([C@H](C)CCCC(C)(C)O)CC[C@@H]23)C[C@@H](O)[C@@H](OCCCO)[C@@H]1O", "inhibition [%]": -2}
{"Compound": "COc1cc(C=CC(=O)O)cc(OC)c1O", "inhibition [%]": 2}
{"Compound": "COc1ccc2ccc(=O)oc2c1CC(=O)C(C)C", "inhibition [%]": -26}
{"Compound": "O=C1N[C@@H](Cc2cnc[nH]2)C(=O)N2CCC[C@@H]12", "inhibition [%]": -21}
{"Compound": "C[C@H]1[C@H](C)CC[C@]2(C(=O)O)CC[C@]3(C)C(=CC[C@@H]4[C@@]5(C)C[C@@H](O)[C@H](O)[C@@](C)(CO)[C@@H]5[C@H](O)C[C@]43C)[C@H]12", "inhibition [%]": -5}
{"Compound": "COc1cc([C@H]2c3cc(O)c(OC)cc3C[C@@H](CO)[C@@H]2CO)ccc1O", "inhibition [%]": 18}
{"Compound": "CC(=O)CCC=C(C)C", "inhibition [%]": -3}
{"Compound": "CCOC(=O)C1=C(COCCN)NC(C)=C(C(=O)OC)[C@@H]1c1ccccc1Cl", "inhibition [%]": -2}
{"Compound": "O=c1cc(-c2ccc(O)cc2)oc2c([C@@H]3O[C@H](CO)[C@@H](O)[C@H](O)[C@H]3O)c(O)c([C@@H]3OC[C@@H](O)[C@H](O)[C@H]3O)c(O)c12", "inhibition [%]": -2}
{"Compound": "CCCCCCCCCCC(=O)OC", "inhibition [%]": 14}
{"Compound": "COC(=O)C1=CO[C@@H](O[C@@H]2O[C@H](CO)[C@@H](O)[C@H](O)[C@H]2O)[C@H]2[C@@H]1C(=O)C[C@@H]2C", "inhibition [%]": -19}
{"data": "Set 2", "target": "Diamine acetyltransferase 1 (Homo sapiens, UniProt P21673)", "mode": "inhibitor", "tested at": "10 µM", "reference": "control", "Residues (P21673 1-171)": "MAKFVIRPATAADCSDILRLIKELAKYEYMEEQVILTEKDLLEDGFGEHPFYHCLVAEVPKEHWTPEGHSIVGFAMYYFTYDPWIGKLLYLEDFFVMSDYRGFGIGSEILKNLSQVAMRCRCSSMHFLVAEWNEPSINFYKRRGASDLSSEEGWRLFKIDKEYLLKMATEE"}
{"Structure (SMILES)": "Cc1cc(=O)oc2cc(O)ccc12", "remaining activity [%]": 104}
{"Structure (SMILES)": "CSCCC(N)C(=O)O (racemic)", "remaining activity [%]": 110}
{"Structure (SMILES)": "CC(/C=C/C=C(\\C)C(=O)O)=C\\C=C\\C=C(C)\\C=C\\C=C(/C)C(=O)O", "remaining activity [%]": 113}
{"Structure (SMILES)": "COc1cc(CCC(=O)CC(=O)CCc2ccc(O)c(OC)c2)ccc1O", "remaining activity [%]": 103}
{"Structure (SMILES)": "COc1c(O[C@@H]2O[C@H](CO)[C@@H](O)[C@H](O)[C@H]2O)cc2occ(-c3ccc(O)cc3)c(=O)c2c1O", "remaining activity [%]": 81.3}
{"Structure (SMILES)": "COc1ccc(-c2cc(=O)c3c(OC)c(OC)c(OC)c(OC)c3o2)cc1OC", "remaining activity [%]": 87.3}
{"Structure (SMILES)": "CC1(C)CC[C@]2(C(=O)O)CC[C@]3(C)C(=CC[C@@H]4[C@@]5(C)C[C@@H](O)[C@H](O)C(C)(C)[C@@H]5CC[C@]43C)[C@@H]2C1", "remaining activity [%]": 88.6}
{"Structure (SMILES)": "CCCCCCCC/C=C\\CCCCCCCCC(=O)O", "remaining activity [%]": 101}
{"Structure (SMILES)": "CCCCCCCCCCCCCCCCC(=O)O", "remaining activity [%]": 98.4}
{"Structure (SMILES)": "CC(=O)O[C@H]1CC[C@]2(C)[C@H]3CC=C4[C@@H]5CC(C)(C)CC[C@]5(C)CC[C@@]4(C)[C@]3(C)CC[C@H]2C1(C)C", "remaining activity [%]": 104}
{"Structure (SMILES)": "CCCCCCCCCCCCCC(C)=O", "remaining activity [%]": 94.4}
{"Structure (SMILES)": "CCCCCCCCCCCCCCCCCCOC(=O)[C@@]1(C)CC[C@]2(C)CC[C@]3(C)C(=CC(=O)[C@@H]4[C@@]5(C)CC[C@H](O)C(C)(C)[C@@H]5CC[C@]43C)[C@@H]2C1", "remaining activity [%]": 91.1}
{"Structure (SMILES)": "Cc1c(O)cc2c(c1C)O[C@](C)(CCC[C@H](C)CCC[C@H](C)CCCC(C)C)CC2", "remaining activity [%]": 105}
{"data": "Set 3", "SMILES": "CN([C@@H]1CCc2c(CC(=O)O)c3cc(S(C)(=O)=O)ccc3n2C1)S(=O)(=O)c1ccc(F)cc1", "technique": "competition with immobilised ligand", "tested at": "1 µM"}
{"target": "PHKG1 (Homo sapiens, UniProt Q16816)", "observed": "cell-free assay", "remaining binding [%]": 100}
{"target": "Myosin-IIIa (MYO3A, Homo sapiens, UniProt Q8NEV4)", "observed": "cell-free assay", "remaining binding [%]": 100}
{"target": "TIE1 (Homo sapiens, UniProt P35590)", "observed": "cell-free assay", "remaining binding [%]": 95}
{"target": "ERBB2 (Homo sapiens, UniProt P04626)", "observed": "cell-free assay", "remaining binding [%]": 100}
{"target": "Tyrosine-protein kinase ABL1, phosphorylated (ABL1, Homo sapiens, UniProt P00519, F317L)", "observed": "cell-free assay", "remaining binding [%]": 92}
{"target": "PRKCH (Homo sapiens, UniProt P24723)", "observed": "cell-free assay", "remaining binding [%]": 100}
{"target": "MAPK9 (Homo sapiens, UniProt P45984)", "observed": "cell-free assay", "remaining binding [%]": 100}
{"target": "MAP2K5 (Homo sapiens, UniProt Q13163)", "observed": "cell-free assay", "remaining binding [%]": 100}
{"target": "ROS1 (Homo sapiens, UniProt P08922)", "observed": "cell-free assay", "remaining binding [%]": 87}
{"target": "MAPK15 (Homo sapiens, UniProt Q8TD08)", "observed": "cell-free assay", "remaining binding [%]": 100}
{"target": "MAP3K2 (Homo sapiens, UniProt Q9Y2U5)", "observed": "cell-free assay", "remaining binding [%]": 89}
{"target": "Tyrosine-protein kinase JAK1, JH1 (JAK1, Homo sapiens, UniProt P23458)", "observed": "cell-free assay", "remaining binding [%]": 100}
{"target": "NIM1K (Homo sapiens, UniProt Q8IY84)", "observed": "cell-free assay", "remaining binding [%]": 100}
{"target": "PHKG2 (Homo sapiens, UniProt P15735)", "observed": "cell-free assay", "remaining binding [%]": 100}
{"target": "TGFBR2 (Homo sapiens, UniProt P37173)", "observed": "cell-free assay", "remaining binding [%]": 67}
{"target": "Non-receptor tyrosine-protein kinase TYK2, JH2 (TYK2, Homo sapiens, UniProt P29597)", "observed": "cell-free assay", "remaining binding [%]": 83}
{"target": "Tyrosine-protein kinase ABL1, phosphorylated (ABL1, Homo sapiens, UniProt P00519, E255K)", "observed": "binding", "remaining binding [%]": 100}
{"target": "AKT3 (Homo sapiens, UniProt Q9Y243)", "observed": "cell-free assay", "remaining binding [%]": 83}
{"target": "TLK1 (Homo sapiens, UniProt Q9UKI8)", "observed": "cell-free assay", "remaining binding [%]": 100}
{"target": "Tyrosine-protein kinase ABL1, phosphorylated (ABL1, Homo sapiens, UniProt P00519, T315I)", "observed": "cell-free assay", "remaining binding [%]": 93}
{"target": "STK33 (Homo sapiens, UniProt Q9BYT3)", "observed": "cell-free assay", "remaining binding [%]": 99}
{"target": "RPS6KB1 (Homo sapiens, UniProt P23443)", "observed": "cell-free assay", "remaining binding [%]": 100}
{"target": "MAPK12 (Homo sapiens, UniProt P53778)", "observed": "cell-free assay", "remaining binding [%]": 100}
{"target": "MAP4K4 (Homo sapiens, UniProt O95819)", "observed": "cell-free assay", "remaining binding [%]": 100}
{"target": "CASK (Homo sapiens, UniProt O14936)", "observed": "cell-free assay", "remaining binding [%]": 80}
{"data": "Set 4", "cell line": "HaCaT", "tested at": "100 µM", "time": "60 h"}
{"Structure (SMILES)": "CCC(CC)[C@H](NC(C)=O)[C@@H]1[C@H](O)[C@@H](C(=O)O)C[C@H]1NC(=N)N", "viability [%]": 125}
{"Structure (SMILES)": "Cc1cc(-c2ccc(/N=N/c3ccc4c(S(=O)(=O)O)cc(S(=O)(=O)O)c(N)c4c3O)c(C)c2)ccc1/N=N/c1ccc2c(S(=O)(=O)O)cc(S(=O)(=O)O)c(N)c2c1O", "viability [%]": 171}
{"Structure (SMILES)": "Cn1c([N+](=O)[O-])cnc1COC(N)=O", "viability [%]": 119}
{"Structure (SMILES)": "CCCC(=O)Nc1ccc(OCC(O)CNC(C)C)c(C(C)=O)c1 (centres unmarked)", "viability [%]": 146}
{"Structure (SMILES)": "CC(=O)Oc1ccc(C(c2ccc(OC(C)=O)cc2)c2ccccn2)cc1", "viability [%]": 15.9}
{"Structure (SMILES)": "NC(=O)c1ncn([C@@H]2O[C@H](CO)[C@@H](O)[C@H]2O)c1O", "viability [%]": 125}
